# Experimental data gathered from unrelated publications.
# Each line is one published result; not all experiments were run side by side.
# Cell line: UACC-257
Compound,assay,conditions,how to read,measurement,value
C#C[C@@]1(O)[C@@H](CO)O[C@@H](n2cc(F)c3c(N)ncnc32)[C@@H]1O,SRB,NCI-60 screen,,TGI,4.64 µM
CCCN1CCN(c2ccc3[nH]c(-c4ccc5[nH]c(-c6ccc(OCC)c(OCC)c6)nc5c4)nc3c2)CC1,SRB,"10 µM, 48 h",,growth percent,-29.7%
C#C[C@@]1(O)[C@@H](CO)O[C@@H](n2ccc3c(N)ncnc32)[C@@H]1O,SRB,NCI-60 screen,,TGI,7.05 µM
CSc1nc(-c2ccc(Cl)cc2)c2c(NC(=O)c3ccccc3)nnc-2[nH]1,SRB,"10 µM, NCI60 single-dose screen",reference: untreated,cell growth,98.8%
COc1ccc(OC)c(-c2nc3ccc(-c4nc5ccc(N6CCN(C)CC6)cc5[nH]4)cc3[nH]2)c1,SRB,"10 µM, 48 h",,growth percent,105%
O=C(/C=C/C=C/C=C/C1CCCCC1)NC1=C[C@@](O)(/C=C/C=C/C=C/C(=O)NC2=C(O)CCC2=O)[C@@H]2O[C@@H]2C1=O,"cell growth, CellTiter-Glo",78 h,,GI50,17.6 µM
CCCN1CCN(c2ccc3[nH]c(-c4ccc5[nH]c(-c6ccc(C(F)(F)F)cc6)nc5c4)nc3c2)CC1,SRB,"10 µM, 48 h",,growth percent,96.5%
O=C(Nc1nnc2n3c(Cc4ccccc4)n[nH]c3nc(-c3ccc(Cl)cc3)c1-2)c1ccccc1,SRB,"10 µM, NCI60 single-dose screen",reference: untreated,cell growth,102%
CCCCN1CCN(c2ccc3[nH]c(-c4ccc5[nH]c(-c6cc(OC)c(OC)c(OC)c6)nc5c4)nc3c2)CC1,SRB,"10 µM, 48 h",,growth percent,87.9%
Cc1cc(-c2ccccc2)n(-c2nc(-c3ccc(Cl)cc3)c3c(NC(=O)c4ccccc4)nnc-3[nH]2)n1,SRB,"10 µM, NCI60 single-dose screen",reference: untreated,cell growth,98.8%
O=C1NC(c2ccccc2)(c2ccccc2)C(=O)N1Cc1cn(-c2c3ccccc3nc3ccccc23)nn1,NCI60 single-dose screen,10 µM,,growth percentage,89.1%
Cc1cc(=O)[nH]n1-c1nc(-c2ccc(Cl)cc2)c2c(NC(=O)c3ccccc3)nnc-2[nH]1,SRB,"10 µM, NCI60 single-dose screen",reference: untreated,cell growth,98.2%
S=C([S][Au-][P+](CCCCCC[P+]([Au-][S]C(=S)n1cccn1)(c1ccccc1)c1ccccc1)(c1ccccc1)c1ccccc1)n1cccn1,"cell growth, NCI-60 screen",melanoma,,log10 TGI,> -4
O=C(Nc1nnc2n3c(=S)[nH][nH]c3nc(-c3ccc(Cl)cc3)c1-2)c1ccccc1,SRB,"10 µM, NCI60 single-dose screen",reference: untreated,cell growth,105%
O=c1ccn(Cc2cn(-c3c4ccccc4nc4ccccc34)nn2)c(=O)[nH]1,NCI60 single-dose screen,10 µM,,growth percentage,85.6%
Cn1cncc1C1=CN(c2ncnc3[nH]cnc23)CCS1,,melanoma cell line,,TGI,148 µM
CCCN1CCN(c2ccc3nc(-c4ccc5nc(-c6cc(OC)ccc6OC)[nH]c5c4)[nH]c3c2)CC1,SRB,"10 µM, 48 h",,growth percent,110%
CCOC(=O)CSc1nc(-c2ccc(Cl)cc2)c2c(NC(=O)c3ccccc3)nnc-2[nH]1,SRB,"10 µM, NCI60 single-dose screen",reference: untreated,cell growth,106%
O=c1ccn(Cc2cn(-c3cc4ccccc4oc3=O)nn2)c(=O)[nH]1,NCI60 single-dose screen,10 µM,,growth percentage,104%
CCCCN1CCN(c2ccc3nc(-c4ccc5nc(-c6cc(OC)ccc6OC)[nH]c5c4)[nH]c3c2)CC1,SRB,"10 µM, 48 h",,growth percent,104%
